Measured values of several laboratories.
Every numbered part comes from another study and shows a few of its results, in no order.

Block 1
Target: RNA binding protein fox-1 homolog 2, RRM domain, GST-SBP tag (RBFOX2, Homo sapiens, UniProt O43251-10, residues 100-194)
Method: RNA Bind-n-Seq
Form: RNA
Matrix: in vitro
Tested at: 365 nM
Setting: natural RNA segment, single round, ends assumed
Baseline: no-protein control
Direction: higher = stronger binding
Shared flanks, not repeated: GGGAGUUCUACAGUCCGACGAUC … UGGAAUUCUCGGGUGCCAA
Residues (chain): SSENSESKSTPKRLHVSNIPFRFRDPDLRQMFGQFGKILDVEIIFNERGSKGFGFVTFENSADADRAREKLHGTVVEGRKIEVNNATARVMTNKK
Sequence | RBNS enrichment (R)
CAUUGUCACAUUAUUGACACAGUAAUUAGAAACCCACUGUGGCCUCUUCAGGAGUGUGCUUAUGUCUGUAAAUUGCUGGAGAGGGGGUAGAUGGGCCAGGACAACCAGCA | 2.32
CACUCCCAGGUGCAUGCUUCAGUGAGUGCCACAUGCCACUAGCUUUUACCAAUAACCAUAUUCUGGCUUAUUCUCCUACCCUCUGCUUCCAUUCAAUCUUCCCCACUAGG | 3.3
UAGAAUUUGGGAGAAGCAAAUAUAGGUCCUGUGUUAAACACUACACAUUUGAAACAAGCUAACCCUGGGGAGUCUAUGGUCUCUUCACUCAGGUCUCAGCUAUAAUUCUG | 0.473
ACUGCACGGGCCCUGCUCCUGCAACAUGGAACUGUCGCGUAGCACCUGUACAAGAGACCCGGCCACUCCACUCCCUCCUGUGACCUGGACCUCUCCCUGACUUCCUAACA | 0.471
CUGUGAGAGAAUGUGUGCAACUACAUGUGUGGGGGCAUGGUAGCUACUGUGUGUGUGAGAUCCUAUAUACCAGCAUGUACCAAGAAUGUGUGUGUAGUUUUAAUUAUGCU | 29.4
AGCAAACUAACACCAAGUGCCAGAGUCCUGGAUGUGCAAUUGGUUUAAGUGUUCAUGUUCUAGUGAACACAGCUUGUUCAGGAACAAACACUAAAACGAUUUGAGUAGAG | 0.355
AGCUGCAGACAUGAGCCUUCCCGCCUCAACACAUCCUCCGUAGAAGGGACCCCCUCCCUGCUCCUGGGUCCCUGCGUGUGUGGGUGUGUGUCCGUGUGCAUGGCCUGUUU | 3.65
GAUCUGCCAUAAAUUCUUCCUAAAUAAUUUGUUUACUAACUCUUUAGGCCACUGUGCUUUGCGGUCCAUUAGUAAACUUGUGUUGCUAAGUGCUAAACAGAAUACUGCUA | 0.293
AGACACUGCCUCCCUGGAGCCCAUGCAUGCCCAGCUGUUCUUACUGCUUAGUAGCCUUGAAGCAGCACAUCUCCACUGUCCCUGGCAGGAUUGUGGGAGGCUUCACAACC | 5.07
AAUUUAAGUUUCAAAUUAGUUCUCUAUAUGAGAUACUUAAUCGAGCAUAUAUAUUUAUAUUCAUUGAUCAAACUGAUAUGCUACAGGAGAAUGUAUGCAAUGUGUAAAAA | 0.923
AUUAGGGUCUAGUUGCCCCUGGUCCUUAGCUUGCUCAGCUGCAAAAUAAGCGUGCUAAAUUAAAUUGUCUUAAGGUUUUUCCACUUCAUUUUGUGACUUUGUGUGGUUCG | 0.346
ACUAACCCAGGACUCAGUCCUGCUUCUUUUGCCUCGAGUGAUUUUCCUCUGUUUUUCACUAAAUAAGCAAAUGAAAACUCUCUCCAUUACCUUCUGCUUUCUCUUUGUCC | 0.726

Block 2
Target: RING finger protein unkempt homolog, zinc fingers 1-6, GST-SBP tag (UNK, Homo sapiens, UniProt Q9C0B0, residues 30-357)
Method: RNA Bind-n-Seq
Form: RNA
Matrix: in vitro
Tested at: not given
Setting: RNA with constant flanks, human and mouse sites, ends assumed
Baseline: input RNA pool
Direction: higher = stronger binding
Shared flanks, not repeated: GGGAGUUCUACAGUCCGACGAUC … CAACAGAGGAUUGAGCAUCA
Residues (chain): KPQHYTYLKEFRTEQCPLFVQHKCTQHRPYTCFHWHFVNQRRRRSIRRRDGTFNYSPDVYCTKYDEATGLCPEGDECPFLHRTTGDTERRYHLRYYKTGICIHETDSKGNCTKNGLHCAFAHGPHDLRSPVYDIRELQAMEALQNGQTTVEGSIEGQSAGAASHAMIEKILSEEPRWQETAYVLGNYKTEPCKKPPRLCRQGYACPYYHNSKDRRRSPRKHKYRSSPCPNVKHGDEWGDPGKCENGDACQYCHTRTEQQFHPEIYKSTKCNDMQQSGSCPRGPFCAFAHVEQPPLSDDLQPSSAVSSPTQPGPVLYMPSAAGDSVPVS
Sequence | bound/input enrichment
GGAGCUGCGGGAACCGGACUCCGGGCGGGUUGGACUGCUGGAGUCAAUGAGAGAAGCUUUUAGGUUAAUUUGAAUAUAAGAUCAGAUCUGAUUGGCCCACCUGGACACCCCUUCAAGGAA | 0.653 ratio
AAAGACAAGGAGCAGGUGGGGAUGAUCAAAGAGAAAUACGAGCACCGGAUGCUACUGAAGCACAUGCCAUCCGAGUUUCAUCUCUUCCUGGACCACAUUGCCAGCCUCGACUACUUCACC | 0.0639 ratio
CUCUCUGACUAUCAACGUGGACGAGUAGAAAAUGUAUGUAAACGACUCAAUCUCCAGCCUUUAGCUUAUCUUUGGCAAAGAAACCAGGAAGAUUUGCUCCGAGAGAUGAUAGCUUCUAAU | 0.316 ratio
CUGGACACCAACAGUGAUGGUCAGCUAGAUUUCUCAGAAUUUCUUAAUCUGAUUGGUGGCCUAGCUAUGGCUUGCCAUGACUCCUUCCUCAAGGCUGUCCCUUCCCAGAAGCGGACCUGA | 0.0686 ratio
UCAGUUAAGUUGUCAGAAAACAUGAAGGCAUCUUCCUUUAAAAAGCUACAGAAGUUCUAUAUAGACCCAUACAAGCUGCUGCCGCUGCAGAGGUUUCUGCCUCGUCCUCCUGGUGAGAAA | 0.267 ratio
CUCAUGCAGUUGUGGUCAAUAUUGUGGUAAUCGCUAAUUGUACUGAUUGUUUAAGUGUGCAUUAGUUGUGUCUCCCCAGCUAGAUUGUAAGCUCCUGGAGGACAGGGACCACCUCUACAA | 0.251 ratio
GGGCACAUCCAGCUGAUGAUCCCUGGAGAGUCGGCUUGCUUCGCGUGUGCGCCACCACUUGUAGUUGCUUCAAAUAUUGAUGAAAAAACCCUGAAACGAGAAGGCGUCUGCGCAGCCAGU | 0.235 ratio
AGGCCCCGGUCCAGGGCGGGCGGCCUGGCGGCGAUGCCGUACAUGCGCUUCCGCCACCCCCUCAGCGUCUUGGGCAUCAAUUACCAGCAGUUCCUGCGCCACUACCUGGAGAACUACCCG | 0.144 ratio
UCUGACGGCCGCUCCUACUCCAGCAUCUGCGCGCUACGUCUGCGCGCCCGACAUGCACCCCGCGCGCACCAUGGCCACCUGCACAAGGCUCGCGAUGGGCCCUGCGAGUUCGCUCCCGUG | 0.0496 ratio
GUACAGUAGACGAGGCUUCCUUGGAAUGGUUUGCCCCGCUGCAUUGGUUUGGGUUUAAGCUAGUUAUACUUCUGUCACUAUUCUAAGUUAAAUGCAAAACUUUCAAGUAGUUUUAAUGAA | 0.627 ratio
AUUGGCCAAGGCCUGAAGCACAGGACCAGCUAGAGGCAGCAGGCUCCGAGUGCCAGGGAGAGCUUGUGGCUGGCCUGUUUUGUAUGAAGAUGGUCCUUUCUGAUCACGACUUCAAAUCCC | 0.123 ratio

Block 3
Target: Centromere-binding protein 1, full length, His-tagged (CBF1, Saccharomyces cerevisiae, UniProt P17106, residues 1-351)
Chain of UniProt P17106 (whole entry, looked up): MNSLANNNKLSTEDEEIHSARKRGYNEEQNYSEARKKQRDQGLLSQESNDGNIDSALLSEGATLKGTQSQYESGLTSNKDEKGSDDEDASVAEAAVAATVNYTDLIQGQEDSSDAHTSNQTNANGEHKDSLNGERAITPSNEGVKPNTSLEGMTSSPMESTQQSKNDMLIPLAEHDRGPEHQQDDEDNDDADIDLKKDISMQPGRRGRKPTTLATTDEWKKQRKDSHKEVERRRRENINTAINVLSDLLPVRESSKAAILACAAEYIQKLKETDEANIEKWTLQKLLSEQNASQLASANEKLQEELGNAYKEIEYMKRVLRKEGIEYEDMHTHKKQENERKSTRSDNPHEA
Method: competition protein-binding microarray
Form: double-stranded DNA, one strand shown
Matrix: in vitro
Tested at: 2 µM
Setting: whole 60-bp probe, lowest competitor level
Together with: Pho4 competitor, 0.05 µM
Direction: higher = stronger binding
Shared flanks, not repeated: … GTCTTGATTCGCTTGACGCTGCTG
Sequence | fluorescence intensity [a.u.]
AGGGTGGTATGGATACACGGGAAGCTGGGTGCTGCA | 83.7
CAGCTCGCCATCCTCCACGTTTTGGTAAGCTGCCGG | 71.4
ACAGGACTTCCAGGACACGTTTCTGGATTCATCCCT | 103
TATACTAGGTAGTTACACGTGAAATTATTGAATCAA | 985
AATTGAAGTGCGAGTCACGTGCAAAGCGACGGTAGT | 6740
CATACCCAACCTTGTGTCGTGGGTGAAGATATTTGT | 68.5
AAAGCGGTAATTTGGCCTGTGGGTGCAGATATCTAT | 77.2
TGCGCAACAACTTTTCACGTGAGTTTATGTCTAGAA | 1060
GAAAACCTGGCTTGACTCGTGATGGCTTATTTAACG | 337
TAACGTTCGTCGGGACATATGACTTGAAAAATGTCC | 180
ATTGTTGCTAAAAACGACATGACAACCATGAAGTAC | 92.7
ACTTGGCGTTGGTCCAACGTGGAATTTCAACAACCA | 69.6
TGAGTACTATGTTATCAGGTGCTGCTGTTATGGATG | 181
CTGAGTCCGACATCGCTCGTGTAGTTATTTGTAAAA | 78.1
TCTAATCTCTAAGTACACGTGCAAATGGACCTATCA | 1250
TTCCGCAATAGCCAACACGTGTGGAGGAACTTCAAG | 947
TTTTTGTAGAATGTACGCGTGATGGCAGTGCCCTGC | 150
TTTCCTGTTGTGGGTCATATGACTTTGAACCAAATG | 1050
GTCTTGTCTCATTGTATAGTGGGTGTCCCCACTTCA | 82.2
AGGCCAGTTGCTCAACACGCTACAAGAAGGCAGATG | 78.8
CATACCCAACCTTGATGTGTGGGTGAAGATATTTGT | 64.2
AGTAAAAGACGAAAGCACGTTAACAATGGAACACTC | 89.2
TGCGCAACAACTTGTCACCACACTTTATGTCTAGAA | 87.3
AAATTACTAAGTTTTCACGTGCCTTACCCCGTATGA | 1180
TGCGCAACAACTTGTCACATGACTTTATGTCTAGAA | 2790

Block 4
Target: Histone acetyltransferase KAT6A, both winged helices, GST fusion (KAT6A, Homo sapiens, UniProt Q92794, residues 1-181)
Method: protein binding microarray
Form: double-stranded DNA, one strand shown
Matrix: in vitro
Tested at: not given
Setting: 8-mer, flanks averaged, mean of 2 arrays, mostly near background
Baseline: not given
Direction: higher = stronger binding
Residues (chain): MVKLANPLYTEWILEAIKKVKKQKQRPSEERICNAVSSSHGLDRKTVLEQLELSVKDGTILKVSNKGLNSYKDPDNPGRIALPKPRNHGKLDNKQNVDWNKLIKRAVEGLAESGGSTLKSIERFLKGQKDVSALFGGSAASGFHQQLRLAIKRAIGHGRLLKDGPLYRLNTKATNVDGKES
Sequence | E-score
GAGCACTC | -0.12
ATAAGAAA | -0.109
TCTTTACA | -0.136
CGGCTTAC | 0.236
GCTTCAGA | -0.0926
CAGTATTA | -0.142
ACTTTGAC | -0.0123
TGACATCA | -0.0616
CACCGTTC | 0.0369
GCACAAGC | -0.0737
ATACATGA | -0.00225
AGTACGAC | -0.054
AATGTTCC | -0.00071
ATCGCGAC | 0.256
GGGGCAGA | -0.251
CCTAGGCA | -0.132
AAAAATAC | -0.11

For quick reference, copied from above (block 3):
Sequence | fluorescence intensity [a.u.]
AAAGCGGTAATTTGGCCTGTGGGTGCAGATATCTAT | 77.2
ATTGTTGCTAAAAACGACATGACAACCATGAAGTAC | 92.7
AGGGTGGTATGGATACACGGGAAGCTGGGTGCTGCA | 83.7
CTGAGTCCGACATCGCTCGTGTAGTTATTTGTAAAA | 78.1
TGCGCAACAACTTTTCACGTGAGTTTATGTCTAGAA | 1060
TTCCGCAATAGCCAACACGTGTGGAGGAACTTCAAG | 947
CAGCTCGCCATCCTCCACGTTTTGGTAAGCTGCCGG | 71.4
